Published values gathered from unrelated publications.
Compare with care: the assays were run in different laboratories. Numbers after ± are the reported error.
Cell line: HCT-15

| SMILES | observed | technique | time | notes | IC50 |
| --- | --- | --- | --- | --- | --- |
| COc1cc(S(=O)(=O)Oc2ccc3[nH]c(C)cc3c2)cc(OC)c1OC | cell growth or viability | – | 72 h | – | 0.00371 µM |
| CC(=O)[O][Pt]([NH2])([NH2])([Cl])([Cl])[O]C(=O)CCCc1ccccc1 | cell growth or viability | MTT | 72 h | – | 4.52 µM |
| O=[C]=[Mn-2]12(=[C]=O)(=[C]=O)[O]c3cc4c(cc3=[N+]1CCc1ccccc1)[O][Mn-2](=[C]=O)(=[C]=O)(=[C]=O)([N+]=4CCc1ccccc1)[n+]1ccc(cc1)C(=O)Nc1ccccc1NC(=O)c1cc[n+]2cc1 | cell growth | MTT | 48 h | LED light photolysis 1 h | 1.97 ± 0.19 µM |
| CC(C)c1ccc(N(C)c2ccc3c(c2)OCC[C@H]3CNc2cnccc2C(=O)O)cc1 | cell growth or viability | ATP luminescence | 7 days | – | 0.00179 µM |
| CCCC[N+]1=c2cc3c4cc2[O][Mn-2]1(=[C]=O)(=[C]=O)(=[C]=O)[n+]1ccc(cc1)C(=O)OCCOC(=O)c1cc[n+](cc1)[Mn-2](=[C]=O)(=[C]=O)(=[C]=O)([O]3)[N+]=4CCCC | cell growth | MTT | 48 h | LED light photolysis 1 h | 3.99 ± 0.63 µM |
| Cc1ccc(C(C)C)cc1.Cc1ccc(C(C)C)cc1.Cc1ccc(C(C)C)cc1.Cc1ccc(C(C)C)cc1.O=S(=O)(O)C(F)(F)F.O=S(=O)(O)C(F)(F)F.O=S(=O)(O)C(F)(F)F.O=S(=O)(O)C(F)(F)F.c1ccc2c3c4ccccc4c(c2c1)-c1cn(nn1)-c1cc[n+](cc1)[Ru-]1[O]c2c4ccccc4c4c5c(c6ccccc6c(c25)=[O+]1)=[O+][Ru-]([O]4)[n+]1ccc(cc1)-n1cc(nn1)-c1c2ccccc2c(c2ccccc12)-c1cn(nn1)-c1cc[n+](cc1)[Ru-]1[O]c2c4ccccc4c4c5c(c6ccccc6c(c25)=[O+]1)=[O+][Ru-]([O]4)[n+]1ccc(cc1)-n1cc-3nn1 | cell growth | MTT | 24 h | after 24 h preincubation in medium at 37 °C | 17.9 ± 0.74 µM |
| CCCC[N+]1=c2cc3c4cc2[O][Mn-2]1(=[C]=O)(=[C]=O)(=[C]=O)[n+]1ccc(cc1)C(=O)Oc1ccccc1OC(=O)c1cc[n+](cc1)[Mn-2](=[C]=O)(=[C]=O)(=[C]=O)([O]3)[N+]=4CCCC | cell growth | MTT | 48 h | LED light photolysis 1 h | 7.88 ± 0.85 µM |
| CCCC(CCC)C(=O)[O][Pt]([NH2])([NH2])([Cl])([Cl])[O]C(C)=O | cell growth or viability | MTT | 72 h | – | 5.39 µM |
| CNC(=O)C1CCCN(C(=O)C2CC3CCC2N3C(=O)[C@@H]2C[C@@H](O)CN2C(=O)NCc2cccc(Cl)c2F)C1 (mixture of isomers) | cell growth or viability | CCK-8 | 72 h | – | 5.51 µM |
| Cc1ccc(C(C)C)cc1.Cc1ccc(C(C)C)cc1.Cc1ccc(C(C)C)cc1.Cc1ccc(C(C)C)cc1.O=S(=O)(O)C(F)(F)F.O=S(=O)(O)C(F)(F)F.O=S(=O)(O)C(F)(F)F.O=S(=O)(O)C(F)(F)F.c1ccc2c3c4ccccc4c(c2c1)-c1cn(nn1)-c1cc[n+](cc1)[Ru-]1[O]c2cc4c(cc2=[O+]1)[O][Ru-]([O+]=4)[n+]1ccc(cc1)-n1cc(nn1)-c1c2ccccc2c(c2ccccc12)-c1cn(nn1)-c1cc[n+](cc1)[Ru-]1[O]c2cc4c(cc2=[O+]1)[O][Ru-]([O+]=4)[n+]1ccc(cc1)-n1cc-3nn1 | cell growth or viability | MTT | 24 h | – | > 20 µM |
| CCCC[N+]1=c2cc3c4cc2[O][Mn-2]1(=[C]=O)(=[C]=O)(=[C]=O)[n+]1ccc(cc1)C(=O)Nc1ccccc1NC(=O)c1cc[n+](cc1)[Mn-2](=[C]=O)(=[C]=O)(=[C]=O)([O]3)[N+]=4CCCC | cell growth | MTT | 48 h | LED light photolysis 1 h | 2.58 ± 0.57 µM |
| Cc1ccc([N+](=O)[O-])cc1S(=O)(=O)N(C)/N=C/c1cnc2ccc(Br)cn12 | cell viability | MTS | – | – | 0.008 µM |

Repeated from above:
| SMILES | observed | technique | time | notes | IC50 |
| --- | --- | --- | --- | --- | --- |
| COc1cc(S(=O)(=O)Oc2ccc3[nH]c(C)cc3c2)cc(OC)c1OC | cell growth or viability | – | 72 h | – | 0.00371 µM |
